Experimental data gathered from unrelated publications.
Each numbered part is a random draw from the data of one study; scales do not carry over between parts.

Series 1 — method: protein-binding microarray; form: double-stranded DNA, one strand shown; medium: in vitro; concentration: 2540 nM top; notes: 60-bp whole probe; added: salmon DNA 0.4 mg/ml; baseline: random background probes; reading: higher = stronger binding; constant ends, left off below: GCCTAGCAC … GTCTTGATTCGCTTGACGCTGCTG
Target: Interferon regulatory factor 3, full length, phosphomimetic (IRF3, Homo sapiens, UniProt Q14653, residues 1-427, S386D/S396D/S398D/S402D/T404D/S405D)
UniProt Q14653, sequence (whole entry, unmodified, looked up): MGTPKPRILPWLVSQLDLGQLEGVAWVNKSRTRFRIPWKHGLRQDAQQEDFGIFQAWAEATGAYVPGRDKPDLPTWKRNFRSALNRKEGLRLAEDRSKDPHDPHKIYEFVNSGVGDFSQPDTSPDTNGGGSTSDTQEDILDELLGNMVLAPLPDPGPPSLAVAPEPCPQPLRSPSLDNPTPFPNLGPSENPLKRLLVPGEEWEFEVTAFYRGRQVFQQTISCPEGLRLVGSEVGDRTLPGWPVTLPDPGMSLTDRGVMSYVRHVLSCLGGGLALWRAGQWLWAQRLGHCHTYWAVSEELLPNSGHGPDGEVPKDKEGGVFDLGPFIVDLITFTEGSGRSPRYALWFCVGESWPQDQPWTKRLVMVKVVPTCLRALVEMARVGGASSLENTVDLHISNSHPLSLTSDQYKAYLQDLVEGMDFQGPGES
Under “fitted relative affinity”, `GACGATTTCGGGTATCGATACGTGCTA` is recorded as 2.19 z-score.
Under “fitted relative affinity”, `TTAGGACAGGGGTTTCGGTTAGTGCTA` is recorded as 2.8 z-score.
`CATCATTGCCTATTTTTCCCCGTGCTA`: “fitted relative affinity” 0.49 z-score.
`GACGGTATCCTTTTTCTGACGTGCTAG` — result for “fitted relative affinity”: 7.38 z-score.
For `TTAGATTTCAATCTCGATTAGTGCTAG`, “fitted relative affinity” read 2.02 z-score.
Under “fitted relative affinity”, `GACGATCTCAGTCTCCAGACGTGCTAG` is recorded as 1.07 z-score.
`GTCGATATCAGTATCGAGACGTGCTAG` — result for “fitted relative affinity”: 1.9 z-score.
For `TTAGTTATCGGGTATCGATTAGTGCTA`, “fitted relative affinity” read 0.839 z-score.
`TCATTTCTGGTTCCCATACTGTGCTAG` — result for “fitted relative affinity”: 3.01 z-score.
`TCTTTTCTGTTGTCTGTGTTTGTGCTA` — result for “fitted relative affinity”: 2.33 z-score.
Under “fitted relative affinity”, `TTAGCTATCGGGTATCGATTAGTGCTA` is recorded as 0.0494 z-score.

Series 2 — method: RNA Bind-n-Seq; form: RNA; medium: in vitro; concentration: 1 µM; notes: whole 134-nt RNA, ends assumed; added: 150 mM KCl; baseline: input library; reading: higher = stronger binding
Target: Ras GTPase-activating protein-binding protein 1, C-terminal RGG region (G3BP1, Homo sapiens, UniProt Q13283)
UniProt Q13283, sequence (whole entry, looked up): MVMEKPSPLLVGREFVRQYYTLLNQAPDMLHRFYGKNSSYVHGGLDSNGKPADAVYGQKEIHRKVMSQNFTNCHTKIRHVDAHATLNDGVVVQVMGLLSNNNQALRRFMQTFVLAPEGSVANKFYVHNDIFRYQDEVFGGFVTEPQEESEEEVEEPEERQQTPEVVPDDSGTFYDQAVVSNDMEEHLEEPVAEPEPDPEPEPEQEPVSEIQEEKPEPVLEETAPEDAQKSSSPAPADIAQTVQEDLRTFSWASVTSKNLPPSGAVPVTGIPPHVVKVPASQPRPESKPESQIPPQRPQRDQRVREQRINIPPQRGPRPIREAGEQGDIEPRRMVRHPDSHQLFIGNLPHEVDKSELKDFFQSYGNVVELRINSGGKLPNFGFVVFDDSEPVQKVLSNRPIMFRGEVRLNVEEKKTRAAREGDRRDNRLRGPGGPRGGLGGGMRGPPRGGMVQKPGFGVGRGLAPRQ
The log2 enrichment of `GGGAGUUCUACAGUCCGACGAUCCUCAAGUCCUGUGCUACACAUCGUAUGUACCGAAUCGGCCCGGCCCGGCCCGGAAAGUAUUAUGUUACGCCGUUCGGAUCUGCACUUCCAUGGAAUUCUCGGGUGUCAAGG` is reported as -1.67.
For `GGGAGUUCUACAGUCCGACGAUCCCUCAAGUCCUGUGCUACACAUCGUAUGUACCGAAUCGGGUGGGAGGGAGGGAAAGUAUUAUGUUACGCCGUUCGGAUCUGCACUUCCAGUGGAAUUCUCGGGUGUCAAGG`, the log2 enrichment was 1.6.
With `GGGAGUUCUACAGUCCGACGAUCAGUCCUGUGCUACACAUCGUAUGUACCGAAUCGGGAAAAGGGAAAAGGGGAAAAGGGGAAAGUAUUAUGUUACGCCGUUCGGAUCUGCACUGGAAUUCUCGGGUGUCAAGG` the log2 enrichment was 0.587.
For `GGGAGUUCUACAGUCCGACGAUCCUCAAGUCCUGUGCUACACAUCGUAUGUACCGAAUCGGUUGGGGUUGGGGUUGGAAAGUAUUAUGUUACGCCGUUCGGAUCUGCACUUCCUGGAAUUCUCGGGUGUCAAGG`, the log2 enrichment was 0.118.
`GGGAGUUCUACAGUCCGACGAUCCACAGACAACACGCACCCACACAGACACAGAGGGAAGAGGUUGGGAUGGGGACAGGGUGCACAGCAGGGCGGGGUAGGACCCCAGCCCCUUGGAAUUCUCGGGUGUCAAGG` has a log2 enrichment of -0.35.
For `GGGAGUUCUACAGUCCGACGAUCUCAAGUCCUGUGCUACACAUCGUAUGUACCGAAUCGGAAAGGAAAGGAAAAAGGAAAGUAUUAUGUUACGCCGUUCGGAUCUGCACUUCCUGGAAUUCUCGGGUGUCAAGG`, the log2 enrichment was -1.45.
For `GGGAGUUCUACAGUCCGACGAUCUCCUGUGCUACACAUCGUAUGUACCGAAUCGGGAAAAAAAGGGUUUUUUUGGGAAAGGGAAAGUAUUAUGUUACGCCGUUCGGAUCUGCAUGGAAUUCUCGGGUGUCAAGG`, the log2 enrichment was -0.92.
`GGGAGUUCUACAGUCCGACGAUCAGUCCUGUGCUACACAUCGUAUGUACCGAAUCGGUUUUUGGGUUUUUGGUUUUUGGGGAAAGUAUUAUGUUACGCCGUUCGGAUCUGCACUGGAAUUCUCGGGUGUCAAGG` gave a log2 enrichment of -1.38.
For `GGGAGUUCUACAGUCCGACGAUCUUUGCAGAGCAGUCUCUGAUGAAGAAUGCCAUAAAAACAUCGGAGGAGUCAUGGAUUGAACAGCAGAUGCUAGAAGACAAGAAACGGGCCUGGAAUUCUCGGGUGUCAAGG`, the log2 enrichment was -2.06.

Series 3 — method: RNA Bind-n-Seq; form: RNA; medium: in vitro; concentration: 365 nM; baseline: no-protein control; reading: higher = stronger binding
Target: RNA binding protein fox-1 homolog 2, RRM domain, GST-SBP tag (RBFOX2, Homo sapiens, UniProt O43251-10, residues 100-194)
Notes: natural RNA segment, single round, ends assumed
Residues (chain): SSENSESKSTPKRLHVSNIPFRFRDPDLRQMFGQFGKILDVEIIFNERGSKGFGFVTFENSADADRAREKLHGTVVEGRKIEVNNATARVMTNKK
`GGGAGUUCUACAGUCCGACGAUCCUAAAUGUUCUCUUUGCCAUAAAGACUCCGUGUUAACUGUGUAAACACUUGGGAUUUUUCUCCUAUGUCCCGAGGUCUGGUCUUGAUUUCUUUUUUGGGUUUCUUUCUAGUGGAAUUCUCGGGUGCCAA`: “RBNS enrichment (R)” 0.403.
For `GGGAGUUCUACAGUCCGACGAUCACACCAACAUCCAGAUGUCACAGCUCUCCAGAGCUAGUCAGAAGAGAAAUCAAAUUAGUGUUUAAACCCAUUUGCAUAUUGACUUGUCAGUACCUUUAACUCAAUUUAAUUGGAAUUCUCGGGUGCCAA`, “RBNS enrichment (R)” read 0.474.
For `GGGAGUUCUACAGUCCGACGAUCUGUGGCUGAGGCUGUAGCAUCUCUGCUGGAGGUGAGACACUCUGGGAACUGAUUUGACCUCGAAUGCUCCUAAAAGAGAACUUGAUAGCCUGACAGCAGAGAAGUAUUAUUGGAAUUCUCGGGUGCCAA`, “RBNS enrichment (R)” read 1.23.
Under “RBNS enrichment (R)”, `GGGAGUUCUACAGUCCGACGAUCUGGUAUUGUACUUGGGCUUUAACAUCAAUGUUGCUUUGAUGUUGUUGGAUAUAAAUAGGAAUUUUUACACAUUACUAUUGUGAAUGGUGAAUGUUCAUGUAUGACCUACUUGGAAUUCUCGGGUGCCAA` is recorded as 0.329.
Under “RBNS enrichment (R)”, `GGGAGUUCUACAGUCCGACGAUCAAAAUUGCCUUACGUACAUUCCUUUUUCCUUUUUCUGCCUCUUCCCUCAAUAGUUGCCUUUUAGUGCUGUAAUAGUUAAAUCCUACAGCAUAAUCAAUAACUCGCAUAUGUGGAAUUCUCGGGUGCCAA` is recorded as 0.578.
Under “RBNS enrichment (R)”, `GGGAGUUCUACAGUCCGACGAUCCCACAAUUGUAGGAUUUUUUUUUCCAUGUACAUUCUUUGUAUAUGUUCAGAAGGGAUCAAAAUUGCCAUCUAACAGGUACCUUAAAGGAUUCCUGGGCAUCUACUUCCACUGGAAUUCUCGGGUGCCAA` is recorded as 0.314.
Under “RBNS enrichment (R)”, `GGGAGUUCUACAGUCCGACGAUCUAGUAGGUUAUUGUAUCAGACUAGAAUUAUAUCUGUUAUAUUUUGCUGUCUUUGUUUUCCUUUGUCUUUCUCCUGUUUGCCAAAAUUCAAUUCAAGUUGUGAUUUUCAAGUGGAAUUCUCGGGUGCCAA` is recorded as 0.391.
`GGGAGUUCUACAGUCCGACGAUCGAGUGUCCUUUAACUGUGGACCAAAGGCAACCCCUGCAGUGUUUAUAAAACAAUUUUAAGACCAUUCAGGCCACAUAAGAUGAGAAUGCAAUUUUGUAGGAUUACAAAAAUGGAAUUCUCGGGUGCCAA`: “RBNS enrichment (R)” 0.632.
`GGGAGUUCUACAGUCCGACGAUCGAAAUUUCAGCUCUGAGUUUGUGCACAUGAAUACUUACUUGUGUUUACCAAAGGUCUAAGGCAUUUGGUUACUUAACCCAAAUAUCCUGAACUGUGCGUAAAGUAAUAGAUGGAAUUCUCGGGUGCCAA` — result for “RBNS enrichment (R)”: 0.296.
`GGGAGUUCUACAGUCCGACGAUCGCCACAGACAGCACAAGAUGUUCACACUAAAGAGAGAGAAGGUGGCUUUUUAUAUGUUAUGUUUUAUACCCAGUAACAAGUGAAUAAACCUCUUUAUAUUUGCACAAGGAUGGAAUUCUCGGGUGCCAA` — result for “RBNS enrichment (R)”: 0.915.
`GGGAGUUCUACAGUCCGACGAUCACUGUGGGGAAUGAGGCAUCUUUUAGCAAGAGCUCUCACCAAUUGUAGAUUGGUGUGAAUUGCUAAGGGAAAAACCUUAUGCAGAGAAAAGUUUUUGACUGGAAAUACACUGGAAUUCUCGGGUGCCAA`: “RBNS enrichment (R)” 0.435.
For `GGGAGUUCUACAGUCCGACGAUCUUUUAUAUAUAUAUAUAAAAGAACAAAAUGAAAAAAAACACACACACACAAGAGUUUACAGAUUAGUUUAAAUUGAUAAUGAAAUGUGAAGUUUGUCCUAGUUUACAUCUUGGAAUUCUCGGGUGCCAA`, “RBNS enrichment (R)” read 0.69.

Series 4 — method: aptamer microarray, sandwich; form: DNA with 2'F-ANA; medium: in vitro; concentration: 200 nM; added: Cy3 exosite-II aptamer, 400 nM; reading: higher = stronger binding; oligonucleotide: GGTTGGTGTGGTTGG
Target: Prothrombin, mature alpha-thrombin (F2, Homo sapiens, UniProt P00734)
Notes: whole 15-mer aptamer, many near background
`2'F-ANA at 2 3 7 11 12 13` — result for “mean fluorescence intensity”: 1010 a.u.
For `2'F-ANA at 1 2 7 9 10 11 13 14 15`, “mean fluorescence intensity” read 75.2 a.u.
`2'F-ANA at 2 3 6 9 11 13`: “mean fluorescence intensity” 516 a.u.
`2'F-ANA at 1 2 3 5 7 8 9 12` — result for “mean fluorescence intensity”: 183 a.u.
`2'F-ANA at 5 8 9 10 11 12 15`: “mean fluorescence intensity” 76 a.u.
`2'F-ANA at 2 3 4 9 10 12 13 14` — result for “mean fluorescence intensity”: 189 a.u.
Under “mean fluorescence intensity”, `2'F-ANA at 1 4 5 7 8 9 11` is recorded as 53.3 a.u.
Under “mean fluorescence intensity”, `2'F-ANA at 5 6 7 10 15` is recorded as 46.6 a.u.
`2'F-ANA at 1 3 4 5 10 12 15`: “mean fluorescence intensity” 53.2 a.u.
`2'F-ANA at 2 3 4 6 7 8 10 11 13 14 15`: “mean fluorescence intensity” 137 a.u.
For `2'F-ANA at 1 6 7 9 10 12 13 14 15`, “mean fluorescence intensity” read 82.1 a.u.
`2'F-ANA at 4 6 7 11 13 14 15` — result for “mean fluorescence intensity”: 112 a.u.
Under “mean fluorescence intensity”, `2'F-ANA at 1 3 4 5 7 8 9 10 11 12 13` is recorded as 50.2 a.u.
For `2'F-ANA at 4 5 6 8 9 11 15`, “mean fluorescence intensity” read 57.6 a.u.
`2'F-ANA at 1 3 4 6 8 9 11`: “mean fluorescence intensity” 230 a.u.
For `2'F-ANA at 1 2 7 9 10 13 14 15`, “mean fluorescence intensity” read 44.1 a.u.

For quick reference, copied from above (series 3):
`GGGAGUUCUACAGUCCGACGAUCCUAAAUGUUCUCUUUGCCAUAAAGACUCCGUGUUAACUGUGUAAACACUUGGGAUUUUUCUCCUAUGUCCCGAGGUCUGGUCUUGAUUUCUUUUUUGGGUUUCUUUCUAGUGGAAUUCUCGGGUGCCAA`: “RBNS enrichment (R)” 0.403.
For `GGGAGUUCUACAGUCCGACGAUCACACCAACAUCCAGAUGUCACAGCUCUCCAGAGCUAGUCAGAAGAGAAAUCAAAUUAGUGUUUAAACCCAUUUGCAUAUUGACUUGUCAGUACCUUUAACUCAAUUUAAUUGGAAUUCUCGGGUGCCAA`, “RBNS enrichment (R)” read 0.474.
For `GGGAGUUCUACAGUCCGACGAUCUGUGGCUGAGGCUGUAGCAUCUCUGCUGGAGGUGAGACACUCUGGGAACUGAUUUGACCUCGAAUGCUCCUAAAAGAGAACUUGAUAGCCUGACAGCAGAGAAGUAUUAUUGGAAUUCUCGGGUGCCAA`, “RBNS enrichment (R)” read 1.23.
Under “RBNS enrichment (R)”, `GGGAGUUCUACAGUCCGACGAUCUGGUAUUGUACUUGGGCUUUAACAUCAAUGUUGCUUUGAUGUUGUUGGAUAUAAAUAGGAAUUUUUACACAUUACUAUUGUGAAUGGUGAAUGUUCAUGUAUGACCUACUUGGAAUUCUCGGGUGCCAA` is recorded as 0.329.
